Assay results from different studies.
Each numbered part is a random draw from the data of one study; scales do not carry over between parts.
UniProt P17106, sequence (whole entry, looked up): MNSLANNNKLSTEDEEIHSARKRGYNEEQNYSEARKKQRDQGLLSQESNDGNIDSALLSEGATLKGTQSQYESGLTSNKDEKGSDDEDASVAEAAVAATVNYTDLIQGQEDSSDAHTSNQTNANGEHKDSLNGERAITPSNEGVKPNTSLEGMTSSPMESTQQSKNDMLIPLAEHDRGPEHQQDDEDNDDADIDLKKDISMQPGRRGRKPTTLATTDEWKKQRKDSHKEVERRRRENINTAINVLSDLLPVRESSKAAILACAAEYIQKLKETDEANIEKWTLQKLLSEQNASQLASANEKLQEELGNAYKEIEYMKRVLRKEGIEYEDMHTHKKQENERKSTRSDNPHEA

Sample 1
Target: Histone acetyltransferase KAT6A, winged helix 1, GST fusion (KAT6A, Homo sapiens, UniProt Q92794, residues 1-85)
Method: protein binding microarray
Molecule type: double-stranded DNA, one strand shown
Medium: in vitro
Tested at: not given
Notes: 8-mer, flanks averaged, mean of 2 arrays, mostly near background
Relative to: not given
Direction: higher = stronger binding
Construct (chain): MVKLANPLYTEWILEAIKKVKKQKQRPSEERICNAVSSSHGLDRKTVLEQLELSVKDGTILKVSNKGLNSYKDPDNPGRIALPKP
With `CCGATACC` the E-score was 0.24.
With `CCCCCGGC` the E-score was 0.334.
For `CAACATAC`, the E-score was 0.00545.

Further values, each from its own experiment
PHO4 full length, GST-tagged: Phosphate system positive regulatory protein PHO4, full length, GST-tagged (PHO4, Saccharomyces cerevisiae, UniProt P07270, residues 1-312)
UniProt P07270, sequence (whole entry, looked up): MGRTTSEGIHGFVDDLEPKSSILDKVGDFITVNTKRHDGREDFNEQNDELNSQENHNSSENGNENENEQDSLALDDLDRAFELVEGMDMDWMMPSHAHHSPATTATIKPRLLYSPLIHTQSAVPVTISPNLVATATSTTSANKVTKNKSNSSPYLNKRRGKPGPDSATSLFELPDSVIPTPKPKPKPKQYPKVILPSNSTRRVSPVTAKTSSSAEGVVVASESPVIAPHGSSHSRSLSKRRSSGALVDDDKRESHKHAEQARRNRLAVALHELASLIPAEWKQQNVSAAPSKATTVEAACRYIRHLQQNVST
PABPC1L2 full length, GST fusion: PABPC1L2, full length, GST fusion (mouse, UniProt A0ABA7IW68)
`GGTGCGCCATTATCGGTTGTGATGAACTACTGGTTGGTCTTGATTCGCTTGACGCTGCTG` has a fluorescence intensity of 3950 a.u. (PHO4 full length, GST-tagged; competition protein-binding microarray; double-stranded DNA, one strand shown, in vitro; 2 µM, whole 60-bp probe, lowest competitor level, added: Cbf1 competitor, 0.05 µM; higher = stronger binding).
The 7-mer Z-score of `CAAUUCA` is reported as -0.249 (PABPC1L2 full length, GST fusion; RNAcompete; RNA, in vitro; 20 nM, 7-mer, probes averaged, single round; relative to: mean of 7-mers, higher = stronger binding).
`CTTCTGTAAATTTGTCACACTACTTGACGCGCCCCGGTCTTGATTCGCTTGACGCTGCTG` has a fluorescence intensity of 4700 a.u. (PHO4 full length, GST-tagged; competition protein-binding microarray; double-stranded DNA, one strand shown, in vitro; 2 µM, whole 60-bp probe, lowest competitor level, added: Cbf1 competitor, 0.05 µM; higher = stronger binding).
`CGGUCCU` has a 7-mer Z-score of -0.215 (PABPC1L2 full length, GST fusion; RNAcompete; RNA, in vitro; 20 nM, 7-mer, probes averaged, single round; relative to: mean of 7-mers, higher = stronger binding).
`GAAATTATCAAGTCGTGCGTTCCACCCCCATTATAGGTCTTGATTCGCTTGACGCTGCTG` has a fluorescence intensity of 549 a.u. (Centromere-binding protein 1, full length, N-terminal tag (CBF1, Saccharomyces cerevisiae, UniProt P17106, residues 1-351); protein-binding microarray; double-stranded DNA, one strand shown, in vitro; 0.8 µM, whole 60-bp probe, no competitor; higher = stronger binding).
`PhoQ, residues 284 288 289 292 302 303 NLGVHL` gave a fold induction of 4.66 (PhoP, residues 12 14 15 18 19 FWNTL (Escherichia coli, UniProt P23836); Sort-seq, measured: YFP reporter; E. coli; PhoQ-PhoP variant library, added: 10 µM Mg2+; relative to: high Mg2+ state, higher = stronger signaling).

For quick reference, copied from above (further values, each from its own experiment):
`GAAATTATCAAGTCGTGCGTTCCACCCCCATTATAGGTCTTGATTCGCTTGACGCTGCTG` has a fluorescence intensity of 549 a.u. (Centromere-binding protein 1, full length, N-terminal tag (CBF1, Saccharomyces cerevisiae, UniProt P17106, residues 1-351); protein-binding microarray; double-stranded DNA, one strand shown, in vitro; 0.8 µM, whole 60-bp probe, no competitor; higher = stronger binding).
